Published values gathered from unrelated publications.
Each numbered part is a random draw from the data of one study; scales do not carry over between parts. ± gives the spread as reported. Values after ≈ are worked out from the molar mass of the structure shown.

Series 1
Organism: VSVΔG with SARS-CoV-2 spike
Effect on: pseudovirus infection
Strain: Wuhan variant
Concentration: 10 µM
Quantity: inhibition
CNC(=O)C(C#N)(Cc1cc(Cl)cc2c1OCOC2)Cc1cc(Cl)cc2c1OCOC2: 88%
Clc1cc2c(c3ncccc13)OCN(C1CCCC1)C2: 65%
CCC(NC(=O)Nc1cccc(C)c1C)c1c(-n2cccc2)sc2c1CCN(C)C2 (stereo not shown): 48%
CC(c1ccc(-c2ccc3sc(N)nc3c2)cc1)N1CCOCC1 (stereo not shown): 49%
c1ccc(-c2cnc3ccccc3c2)c(OCCn2ccnc2)c1: 37%
Cc1cccc(-c2[nH]c(C(C)(C)C)nc2-c2ccc3c(c2)OCO3)n1: 46%
Oc1ccc2ccccc2c1N=Nc1ccccn1: 51%
CCc1c2c(nc3ccc(O)cc13)-c1cc3c(c(=O)n1C2)COC(=O)[C@]3(O)CC: 47%

Further values, each from its own experiment
rep nsp12 RdRp: Replicase polyprotein 1ab, nsp12 RdRp (rep, Severe acute respiratory syndrome coronavirus 2, UniProt P0DTD1)
CNCC12CC3CC(CC1C3)C2
inhibition (Matrix protein 2 (Influenza A virus, UniProt P0DOF5, V27A); concentration not given, pH 5.5, cell-based): 0%

CCc1cc(=O)c2c(OCC(O)CNC(C)C)c3ccoc3c(OC)c2o1 (stereo not shown)
MIC (Mycobacterium tuberculosis; Alamar blue; 22/22, SIRE and linezolid resistant; 21 days, 37 °C): 32 µg/mL (≈ 85.2 µM)

CC(=N)NC12C3CCC4C3C3C(CCC31)C42.Cl
inhibition (Matrix protein 2 (Influenza A virus, UniProt P0DOF5, S31N); concentration not given, pH 5.5, cell-based): 0%

CO[C@H]1/C=C/O[C@@]2(C)Oc3c(C)c(O)c4c(O)c(c(/C=N/N5CCN(C)CC5)c(O)c4c3C2=O)NC(=O)/C(C)=C\C=C\[C@H](C)[C@H](O)[C@@H](C)[C@@H](O)[C@@H](C)[C@H](OC(C)=O)[C@@H]1C
MIC (Mycobacterium tuberculosis; Alamar blue; 22/22, SIRE and linezolid resistant; 21 days, 37 °C): 256 µg/mL (≈ 311 µM)

Nc1ncnc2c1ncn2[C@@H]1O[C@H](CO)[C@@H](O)[C@@H]1O
EC90 (SARS-CoV-2; viral replication; Vero C1008, Omicron BA.1; 48 h, reduction of infectious virus): 12.7 ± 0.36 µM

CC(C)(C)c1nc(-c2cccc(NS(=O)(=O)c3c(F)cccc3F)c2F)c(-c2ccnc(N)n2)s1
BLI response (rep nsp12 RdRp; binding, biolayer interferometry; concentration not given): 0 nm

O=c1[nH]cnc2c([C@@H]3N[C@H](CO)[C@@H](O)[C@H]3O)c[nH]c12
IC100 (SARS-CoV-2; cytopathic effect; Vero C1008, Omicron BA.1; 48 h): 1.58 µM

Cc1ccc(NC(=O)Nc2cc(C(F)(F)F)ccc2F)cc1Nc1ccc2c(c1)NC(=O)/C2=C\c1ccc[nH]1
BLI response (rep nsp12 RdRp; binding, biolayer interferometry; concentration not given): 0 nm

Repeated from above (further values, each from its own experiment):
Nc1ncnc2c1ncn2[C@@H]1O[C@H](CO)[C@@H](O)[C@@H]1O
EC90 (SARS-CoV-2; viral replication; Vero C1008, Omicron BA.1; 48 h, reduction of infectious virus): 12.7 ± 0.36 µM
